Assay results of several laboratories.
Lines come from different studies, so protocols differ. Values joined by “and” are separate records of one study, mostly repeats; a detail may differ. Numbers after ± are the reported error.
AHR: Aryl hydrocarbon receptor (AHR, Homo sapiens, UniProt P35869)
Aryl hydrocarbon receptor: Aryl hydrocarbon receptor (Danio rerio, UniProt Q9YGV3)
STK16: Serine/threonine-protein kinase 16 (STK16, Homo sapiens, UniProt O75716)
SMARCA2: SWI/SNF-related matrix-associated actin-dependent regulator of chromatin subfamily A member 2 (SMARCA2, Homo sapiens, UniProt P51531)
T1: ssDNA, aptamer; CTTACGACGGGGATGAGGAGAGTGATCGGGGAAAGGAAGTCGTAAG

SMILES	target	assay	test system	setting	scale	endpoint	value
O=C(Nc1cccc2[nH]ccc12)c1ccc(F)cc1	Alpha-synuclein (SNCA, Homo sapiens, UniProt P37840)	ThT kinetics	–	concentration not given, added: SNCA 2 µM	–	fibril formation	inhibited
O=c1nc(SCc2cc(F)cc(C(F)(F)F)c2)nc(SCc2ccc3nc(Cl)ccc3c2)[nH]1	TOP2A (Homo sapiens, UniProt P11388)	ATPase activity	–	7.8 µM, added: ATP 0.05 mM	–	ATP hydrolysis rate	0.104 µM/min and 0.436 µM/min
CN(C)c1nccc(-c2cnn3ncccc23)n1	ABL1 (Homo sapiens, UniProt P00519, Q252H)	KINOMEscan	–	1 µM	relative to: control	remaining binding	92% and 60%
Nc1ncnc2c1ncn2[C@@H]1O[C@H](COP(=O)(O)OP(=O)(O)OP(=O)(O)O)[C@@H](O)[C@H]1O	T1, ssDNA, aptamer	ITC	–	–	–	Kd	719 nM
O=S(=O)(O)O	GUK1 (Homo sapiens, UniProt Q16774)	enzyme activity, NADH-coupled	–	10 mM, added: ATP 500 µM	–	reaction velocity	0.0604 µM/s and 0.0774 µM/s and 0.0684 µM/s
COC(=O)c1cccc(C(=O)c2c[nH]c3c2ccc2ccccc23)n1	AHR	reporter gene, agonist, XRE luciferase	HepG2	–	relative to: ITE	Emax	66 ± 4%
O=C(COP(=O)(O)O)[C@@H](O)[C@H](O)[C@H](O)COP(=O)(O)O	PMM2 (Homo sapiens, UniProt O15305)	–	–	0.001 mM, unit not given	relative to: activity at 0 mM set to 100	enzyme activity	97.7 and 97.6 and 95.7
COc1ccnn2ncc(-c3ccnc(N(C)C)n3)c12	ABL1 (Homo sapiens, UniProt P00519, F317I)	KINOMEscan	–	1 µM	relative to: control	remaining binding	98%
CCCCCCCCCCCCC/C=C/[C@@H](O)[C@H](CO)NC(=O)CCCCCCCCCCCCCCCCCCCCCCC	Protein SET (SET, Homo sapiens, UniProt Q01105, Y135C)	lipid binding, GFP pull-down LC-MS/MS	A549 overexpressing GFP-tagged protein	unit not given	relative to: vector-transfected cells	bound endogenous lipid	5.5
CC(=O)OCc1nn(C)c2nc(N)[nH]c(=O)c2c1=O	folP (Bacteria, UniProt P0AC13)	CETSA HiBiT	Escherichia coli, whole cells	–	–	melting temperature	62.9 °C
c1ccc2c(c1)-c1cccc3c1c-2cc1ccccc13	Aryl hydrocarbon receptor	reporter gene, agonist, luciferase reporter	ZF-4	123.5 µM	relative to: vehicle control	fold change	8.72
Nc1ncnc2c1ncn2[C@@H]1O[C@H](COP(=O)(O)CP(=O)(O)OP(=O)(O)O)[C@@H](O)[C@H]1O	P2X purinoceptor 1 (P2RX1, Homo sapiens, UniProt P51575, R139P)	saturation binding	HEK293	130 nM	–	specific binding	2490 CCPM and 1980 CCPM
CN1C(=O)/C(=C2\Nc3ccccc3\C2=N/O)c2ccc(Br)cc21	Aryl hydrocarbon receptor	reporter gene, agonist, luciferase reporter	ZF-4	100 µM	relative to: vehicle control	fold change	25.3
CCCCCCCCCCCCC/C=C/[C@@H](O)[C@H](CO)NC(=O)CCCCCCCCCCCCCCCCC	Protein SET (SET, Homo sapiens, UniProt Q01105)	lipid binding, GFP pull-down LC-MS/MS	A549 overexpressing GFP-tagged protein	ER-targeted construct	relative to: eluate plus flow-through	lipid fraction bound	34.4%
CC1(C)CC2(C)OC(=O)NC2(C)c2ccccc21 (centres unmarked)	Huntingtin (HTT, Homo sapiens, UniProt P42858)	binding, affinity selection mass spectrometry	–	–	relative to: other proteins in batch	fold enrichment	1.75
Nc1ncnc2c1ncn2[C@@H]1O[C@H](COP(=O)(O)OP(=O)(O)O)[C@@H](O)[C@H]1O	GUK1 (Homo sapiens, UniProt Q16774, R137A)	binding, ITC	–	added: GMP	–	-TΔS	1.97 kcal/mol
CCOc1cc(-c2nncn2C)ccc1Nc1ncc2cc(C)nc(NCC(C)(C)C)c2n1	STK16	binding, LanthaScreen binding	–	1 µM	–	displacement	29%
CCN1CCC[C@H]1CNC(=O)c1c(O)c(Cl)cc(Cl)c1OC	Trace amine-associated receptor 6 (TAAR6, Homo sapiens, UniProt Q96RI8)	β-arrestin recruitment, TANGO luminescence, item: TAAR6	–	concentration not given	relative to: basal luminescence	log2 fold change	-0.084
CCCCC[C@H](O)/C=C/[C@H]1C(=O)C[C@H](O)[C@@H]1C/C=C\CCCC(=O)O	PTGDR (Homo sapiens, UniProt Q13258, D72N)	agonist	–	0.01953 µM	–	activation	64.3%
CC[C@@H]1[C@H](F)C(=O)N[C@@H]1COc1nccc2cc(C(N)=O)c(OC)cc12	STK16	ATP-site probe binding, ActivX profiling	THP-1 cell lysate	0.01 mM, Lys2 site	–	inhibition	21.2%
c1ccc(C(NCc2cccnc2)(c2ccccc2)c2ccccc2)cc1	KCNQ1 (Homo sapiens, UniProt P51787)	–	–	100 pM, peak currents above -10 mV	–	slope of normalized current vs voltage	3.2 V⁻¹
CN1CCN(c2cc(-c3ccncc3)c(-c3ccc4ccccc4c3)nn2)CC1	FPR2 (Homo sapiens, UniProt P25090)	agonist, FLIPR	–	12.5 µM	–	activation	-0.3%
Nc1nnc(-c2ccccc2O)cc1N1CCN(Cc2ccc(OCCOCCNc3cccc4c3C(=O)N(C3CCC(=O)NC3=O)C4=O)c(F)c2)CC1 (centres unmarked)	SMARCA2	immunohistochemistry	mouse, NCI-H2126 xenograft, tumour	dose not given	relative to: vehicle	reduction in positive cells	46%
COc1ccc(F)cc1C(=O)NCc1ccc(-c2nn([C@@H](C)C(F)(F)F)c(N)c2C(N)=O)cc1	JAK3 (Homo sapiens, UniProt P52333)	kinase activity, inhibitor, HotSpot radiometric	–	100 nM, added: ATP 10 µM	–	remaining activity	97.4 ± 0.3%
COc1cc(-c2cc(C(C)=O)n3ccccc23)c(OC)cc1Cn1ccnc1	SMARCA2	–	–	–	–	ΔTm	-1.5 °C
C=CC(=O)N1CCC(COCC(=O)N2CCN(c3nc(-c4cnc(N)nc4C(F)F)nc(N4CCOC[C@@H]4C)n3)CC2)CC1	TSSK3 (Homo sapiens, UniProt Q96PN8)	KINOMEscan	–	1 µM	–	remaining binding	100%
c1ccc2c(c1)ccc1ccccc12	AHR	reporter gene, agonist, yeast LacZ reporter	Saccharomyces cerevisiae	–	–	maximum response	111 LacZ units
CN1CCC2(CC1)NC(=O)c1c(c3ccc(Cl)c(Cl)c3n1C)C2C#N (racemic)	Serine/threonine-protein kinase VRK3 (VRK3, Homo sapiens, UniProt Q8IV63)	thermal stability, thermal shift	–	10 µM	higher = stronger binding	delta Tm	0.1 °C
O=C(CCCc1ccccc1)C(=O)NCCc1ccc(Oc2ccc(C(F)(F)F)cn2)cc1	Carboxylesterase 1D (Mus musculus, UniProt Q8VCT4)	inhibitor, item: CES1D	mouse, BAT cytosol proteome	10 µM	relative to: DMSO, lower = stronger inhibition	probe-enriched protein abundance	102000 a.u.

For quick reference, copied from above:
SMILES	target	assay	test system	setting	scale	endpoint	value
COC(=O)c1cccc(C(=O)c2c[nH]c3c2ccc2ccccc23)n1	AHR	reporter gene, agonist, XRE luciferase	HepG2	–	relative to: ITE	Emax	66 ± 4%
CCCCC[C@H](O)/C=C/[C@H]1C(=O)C[C@H](O)[C@@H]1C/C=C\CCCC(=O)O	PTGDR (Homo sapiens, UniProt Q13258, D72N)	agonist	–	0.01953 µM	–	activation	64.3%
